Assay results from different studies.
Every numbered part comes from another study and shows a few of its results, in no order. Positions count from the first letter of the parent shown.

Block 1 — target: CEP164, C-terminal peptide (human); method: DHFR complementation, deep sequencing; matrix: yeast; relative to: wild type; direction: higher = weaker binding
Setting: single substitutions, model-inferred values
Starting sequence: PDZK1, PDZ domain 2 (human); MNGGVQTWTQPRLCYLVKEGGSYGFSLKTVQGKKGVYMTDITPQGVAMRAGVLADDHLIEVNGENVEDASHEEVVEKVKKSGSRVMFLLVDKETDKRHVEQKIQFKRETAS; partner HNRVKVYRF
| Substitution | binding free energy change |
| --- | --- |
| V78E | 2.11 kcal/mol |
| R84V | 0.0695 kcal/mol |
| G20K | 0.0205 kcal/mol |
| G35D | 0.639 kcal/mol |
| Q104E | -0.106 kcal/mol |
| I103E | -0.0943 kcal/mol |
| T42P | 0.531 kcal/mol |
| T39S | 0.201 kcal/mol |

Block 2 — method: protein-binding microarray; form: double-stranded DNA, one strand shown; matrix: in vitro; concentration: 2540 nM top; setting: 60-bp whole probe; together with: salmon DNA 0.4 mg/ml; relative to: random background probes; direction: higher = stronger binding; all sequences stand within: GCCTAGCAC … GTCTTGATTCGCTTGACGCTGCTG
Target: Interferon regulatory factor 3, full length, phosphomimetic (IRF3, Homo sapiens, UniProt Q14653, residues 1-427, S386D/S396D/S398D/S402D/T404D/S405D)
Construct (chain): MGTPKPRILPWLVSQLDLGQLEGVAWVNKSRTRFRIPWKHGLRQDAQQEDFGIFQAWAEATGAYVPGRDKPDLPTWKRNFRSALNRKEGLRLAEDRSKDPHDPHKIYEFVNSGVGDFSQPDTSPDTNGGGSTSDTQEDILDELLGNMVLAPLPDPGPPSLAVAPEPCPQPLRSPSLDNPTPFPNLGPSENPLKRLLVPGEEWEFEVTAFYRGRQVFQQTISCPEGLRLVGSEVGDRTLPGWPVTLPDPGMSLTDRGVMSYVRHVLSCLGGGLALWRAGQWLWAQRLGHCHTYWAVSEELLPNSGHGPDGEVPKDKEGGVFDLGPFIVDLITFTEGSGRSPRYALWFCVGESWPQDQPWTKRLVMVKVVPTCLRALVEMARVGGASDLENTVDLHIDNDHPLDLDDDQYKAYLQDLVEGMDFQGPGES
| Strand | fitted relative affinity |
| --- | --- |
| TCATTTTTCTGATTGAAACTGTGCTAG | 2.16 z-score |
| TTAAGACTGGGTATCGGTTAGTGCTAG | 0.568 z-score |
| TCATCTCAGAATCTCTCACTGTGCTAG | 1 z-score |
| TCATGACTCCCTCTCTGACTGTGCTAG | 0.287 z-score |
| TCAGGGCTCTCTTCTGCTACTGTGCTA | -0.541 z-score |
| TCAGTTTTCATTATTGTACTGTGCTAG | 3.72 z-score |
| TCATCTCTCCATGTGTTACTGTGCTAG | 1.15 z-score |
| GACGGTTTCGACAATGGGGACGTGCTA | 2.69 z-score |

Block 3 — method: RNAcompete; form: RNA; matrix: in vitro; concentration: 20 nM; setting: 7-mer, probes averaged, single round; relative to: mean of 7-mers; direction: higher = stronger binding
Target: PABPC1L2, full length, GST fusion (mouse, UniProt A0ABA7IW68)
Target sequence (chain): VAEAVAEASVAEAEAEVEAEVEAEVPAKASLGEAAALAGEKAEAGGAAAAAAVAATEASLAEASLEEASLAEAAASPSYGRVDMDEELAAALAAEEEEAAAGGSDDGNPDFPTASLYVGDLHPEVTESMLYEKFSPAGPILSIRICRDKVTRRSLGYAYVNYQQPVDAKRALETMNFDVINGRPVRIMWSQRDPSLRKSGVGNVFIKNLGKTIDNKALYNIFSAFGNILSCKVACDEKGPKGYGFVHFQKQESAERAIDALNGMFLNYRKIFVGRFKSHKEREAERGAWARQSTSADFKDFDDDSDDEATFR
| Strand | 7-mer Z-score |
| --- | --- |
| AUAGUAU | -0.103 |
| CUAGACU | -0.19 |
| CUUAUAU | -0.242 |
| CGGUGAC | -0.0464 |
| GCUGUAU | -0.213 |
| UAUGAAU | -0.113 |
| CAAGUUG | -0.166 |
| CAGCGGC | -0.0391 |

Further values, each from its own experiment
| SMILES | test system | setting | measurement | value |
| --- | --- | --- | --- | --- |
| O=c1c2ccc(Cl)cc2ncn1CCS(=O)(=O)c1cc(Cl)ccc1Cl | mouse, microsomes or S9 | 2 µM, 0.5 h | remaining compound | 81.3% |

Excerpt of the above (block 2):
| Strand | fitted relative affinity |
| --- | --- |
| TCAGTTTTCATTATTGTACTGTGCTAG | 3.72 z-score |
| TCATCTCTCCATGTGTTACTGTGCTAG | 1.15 z-score |
| GACGGTTTCGACAATGGGGACGTGCTA | 2.69 z-score |
